Measurements pooled from the literature.
Each line is one published result; not all experiments were run side by side.
TDP1: Tyrosyl-DNA phosphodiesterase 1 (TDP1, Homo sapiens, UniProt Q9NUW8)
UniProt Q9NUW8, sequence (whole entry, looked up): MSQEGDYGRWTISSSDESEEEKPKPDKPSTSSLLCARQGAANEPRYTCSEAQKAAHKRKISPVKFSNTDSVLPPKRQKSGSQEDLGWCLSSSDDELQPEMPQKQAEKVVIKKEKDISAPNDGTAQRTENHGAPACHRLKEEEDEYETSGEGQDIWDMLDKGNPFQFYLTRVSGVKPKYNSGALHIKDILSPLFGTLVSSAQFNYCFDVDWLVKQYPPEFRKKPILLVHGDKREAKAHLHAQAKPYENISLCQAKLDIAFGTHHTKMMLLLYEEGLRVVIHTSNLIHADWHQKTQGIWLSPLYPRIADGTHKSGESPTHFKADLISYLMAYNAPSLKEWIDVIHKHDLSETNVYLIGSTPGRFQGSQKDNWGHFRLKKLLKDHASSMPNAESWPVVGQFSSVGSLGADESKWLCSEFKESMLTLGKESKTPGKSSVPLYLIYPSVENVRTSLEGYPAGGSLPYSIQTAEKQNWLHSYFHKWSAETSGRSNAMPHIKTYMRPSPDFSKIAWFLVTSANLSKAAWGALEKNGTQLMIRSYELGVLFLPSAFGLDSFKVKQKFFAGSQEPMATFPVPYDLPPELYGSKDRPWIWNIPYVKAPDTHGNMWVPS

O=C(OC(C(F)(F)F)C(F)(F)F)N1CCC(CNS(=O)(=O)c2ccc(Cl)cc2)CC1
Tmax (male SCID mouse, brain; oral, 10 mg/kg): 240 min

Fc1cccc(-n2cc(-c3ccccc3)nc2NCc2ccc(C(F)(F)F)c(Br)c2)c1
Tmax (male CD-1 mouse, intestine; intraperitoneal, 25 mg/kg, single dose): 120 min

Cc1cc(NC(=O)[C@H](O)c2cc(F)cc(F)c2)ccc1-c1cnc(N)c(C(=O)NC(C)C)c1
Tmax (female nude mouse, plasma; oral, 50 mg/kg, single dose): 60 min

Cn1c2cc([S+](C)[O-])sc2c2cnn(Cc3cccc(N)c3)c(=O)c21 (stereo not shown)
Tmax (male BALB/c mouse, plasma; intraperitoneal, 50 mg/kg, single dose): 30 min

Fc1cccc(-n2cc(-c3ccccc3)nc2NCc2ccc(C(F)(F)F)c(F)c2)c1
Tmax (male CD-1 mouse, plasma; intraperitoneal, 25 mg/kg, single dose): 30 min

CC[C@H](C)/C=C/C=C/C=C/C(O)=C/C(=O)C(Cl)(Cl)Cl
Tmax (female C57BL/6 mouse, plasma; oral, 25 mg/kg): 15 min

COc1ccccc1/C=C/CNCC(O)COc1ccc(Nc2ccccc2)cc1 (racemic)
Tmax (mouse, plasma; oral, 10 mg/kg): 19.8 min

O=C1CCC(N2C(=O)c3ccc(N4CCC(C(=O)N5CCC(CCN6CCC(CNC(=O)c7cccc(-c8noc(C(F)(F)F)n8)c7)(c7nc(-c8ccccc8)cs7)CC6)CC5)CC4)cc3C2=O)C(=O)N1 (stereo not shown)
Tmax (CD-1 mouse, plasma; intraperitoneal, 30 mg/kg): 15 min

C[C@@H](Nc1nc2c(cnn2C(C)(C)C)c(=O)n1Cc1cccc(F)c1)c1ccc(Cl)cc1
Tmax (C57BL/6 mouse, plasma; oral, 5 mg/kg): 240 min

C[C@@]1(c2nc(-c3ccc(F)c4cn[nH]c34)no2)CCCN(C(=O)c2ccc(F)nc2)C1
Tmax (male C57BL/6 mouse, plasma; intraperitoneal, 20 mg/kg): 19.8 min

OCC1OC(n2cnc3c(NCc4ccc(Br)s4)ncnc32)C(O)C1O (stereo not shown)
Tmax (male C57BL/6 mouse, brain; oral, 3 mg/kg): 120 min

CC(=O)N1c2ccc(-c3ccc(CNC(=O)c4cn5cc(-c6cnc(N)nc6)nc(N6CCOCC6)c5n4)cc3)cc2CC[C@@H]1C
Tmax (female C57BL/6 mouse, plasma; intraperitoneal, 45 mg/kg, single dose): 60 min

O=C(c1ccccc1)N1C(c2ccc(OCC3CCN(CCCF)C3)cc2)c2ccc(O)cc2CC12CC2 (stereo not shown)
Tmax (C57BL/6 mouse, plasma; intraperitoneal, 25 mg/kg): 30 min

CCC1C(COc2nccc3cc(C(N)=O)c(OC)cc23)NC(=O)C1F (stereo not shown)
Tmax (CD-1 mouse, plasma; oral, 10 mg/kg): 2.94 min

CC[C@H](C)/C=C/C=C/C=C/C(O)=C/C(=O)C(F)(F)F
Tmax (female C57BL/6 mouse, plasma; oral, 25 mg/kg): 30 min

COc1cnc2cccc(N3CCc4c(cc(Cn5ccnc5)cc4-c4cn(C)nc4C(F)(F)F)C3=O)c2c1
Tmax (male CD-1 mouse, plasma; intraperitoneal, 10 mg/kg): 30 min

Cn1ccc(-c2cc(Cl)c(Cl)c3[nH]c4c(c23)CN(C(=O)CO)CC4)n1
Tmax (C57BL/6 mouse, blood; oral, 100 mg/kg): 140 min

Cc1ccc(S(=O)(=O)n2cccc2C=NOCc2ccc(-c3nc4cc(-c5ccccc5)ccn4c3Nc3ccc(C(=O)O)cc3)cc2)cc1
inhibition (TDP1; enzyme activity, inhibitor; 100 µM, unpurified compound): 24%

O=C(O)c1ccc(/C=C2\SC(=S)N(Cc3cccc(C(F)(F)F)c3)C2=O)cc1
Tmax (C57BL/6 mouse, blood; intravenous, 5 mg/kg): 4.8 min

O=S(=O)(N[C@H]1CCO[C@@H](C2c3ccccc3CCc3ccccc32)C1)c1ccc(OC(F)(F)F)cc1
Tmax (mouse, plasma; oral, 30 mg/kg): 120 min

O=C(NCCCCc1ccccc1)n1c(=O)oc2cc(-c3ccc(F)cc3)ccc21
Tmax (CD-1 mouse, plasma; intraperitoneal, 10 mg/kg): 30 min

N#CCCC1CCN(C(=S)c2ccc(-c3cc(Cl)ccc3Cl)o2)CC1
Tmax (male BALB/c mouse, plasma; oral, 10 mg/kg): 30 min

Cc1ncsc1-c1ccc(CNC(=O)[C@@H]2C[C@@H](O)CN2C(=O)[C@@H](NC(=O)COCC(C)(COCCOCCOCCNC(=O)C[C@@H]2N=C(c3ccc(Cl)cc3)c3c(sc(C)c3C)-n3c(C)nnc32)COCCOCCOCCNC(=O)C[C@@H]2N=C(c3ccc(Cl)cc3)c3c(sc(C)c3C)-n3c(C)nnc32)C(C)(C)C)cc1
Tmax (male C57BL/6 mouse, plasma; subcutaneous, 5 mg/kg, single dose): 240 min

COC1C(c2ccc(Cl)c(Cc3ccc(OC4CCOC4)cc3)c2)OC(CO)C(O)C1O (stereo not shown)
Tmax (CD-1 mouse, plasma; intravenous, 5 mg/kg): 4.8 min

Cc1ccc(C=NOCc2ccc(-c3nc4cc(-c5ccccc5)ccn4c3Nc3ccc(C(=O)O)cc3)cc2)cc1C
inhibition (TDP1; enzyme activity, inhibitor; 100 µM, unpurified compound): 37.9%

CCn1cc(-c2cc(Cn3ccnc3)cc3c2CCN([C@H](c2cc(OC)ccn2)C2CC2)C3=O)c(C(F)(F)F)n1
Tmax (male CD-1 mouse, plasma; oral, 10 mg/kg): 18 min

Nc1ccc(-c2cc(Cl)c(Cl)c3[nH]c4c(c23)CN(C(=O)CO)CC4)cn1
Tmax (C57BL/6 mouse, blood; intravenous, 0.5 mg/kg): 5 min

COc1ccc(C(=O)c2c(C(=O)NCCCN(C)C)oc3ccc(Cl)cc3c2=O)cc1OC
Tmax (male C57BL/6 mouse, liver; oral, 5 mg/kg): 60 min

For quick reference, copied from above:
O=C(c1ccccc1)N1C(c2ccc(OCC3CCN(CCCF)C3)cc2)c2ccc(O)cc2CC12CC2 (stereo not shown)
Tmax (C57BL/6 mouse, plasma; intraperitoneal, 25 mg/kg): 30 min

COc1ccc(C(=O)c2c(C(=O)NCCCN(C)C)oc3ccc(Cl)cc3c2=O)cc1OC
Tmax (male C57BL/6 mouse, liver; oral, 5 mg/kg): 60 min

Fc1cccc(-n2cc(-c3ccccc3)nc2NCc2ccc(C(F)(F)F)c(Br)c2)c1
Tmax (male CD-1 mouse, intestine; intraperitoneal, 25 mg/kg, single dose): 120 min
